Assay results collected from several papers.
Protocols differ between the studies behind these lines. “And” joins repeats or separate records; there may be more than shown. ± marks the error that the study gave. In brackets after ≈: the same amount, converted by molar mass.

CN1CC[C@@H](NC(=O)Nc2ccc(C#N)cc2)C[C@@H]1c1nc2ccccc2[nH]1
ΔΔQTcF intercept (linear mixed-effects model; healthy volunteers; oral, unit not given; relative to: placebo): 1.79

COc1cc2c3c(n(CCCN4CCOCC4)c(=O)c2cc1OC)-c1cc2c(cc1C3=O)OCO2
AUC(0-inf) (beagle dog, female, plasma; oral, 860 mg/m^2, gelatin capsule): 19.4 ng·h/mL and 17200 ng·h/mL

NCCONC(=O)[C@@H]1CC[C@@H]2CN1C(=O)N2OS(=O)(=O)O
adverse event incidence (item: leading to withdrawal; healthy Chinese men; intravenous, 1 g, treatment-related): 0%

CN(C)C(=N)N=C(N)N
subjects with adverse event (item: any adverse event; healthy men; oral, dose not given, 8 days, treatment-emergent, crossover trial): 40.9%

CNCCOC12CC3(C)CC(C)(CC(Cn4ncc(-c5ccc(N6CCc7cccc(C(=O)Nc8nc9ccccc9s8)c7C6)nc5C(=O)O)c4C)(C3)C1)C2
mean arterial pressure change (beagle dog, male, anaesthetised; intravenous bolus, 0.03 mg/kg, 10 min; relative to: baseline): -5%

Cc1cc2sc(N)nc2c2cccnc12
dose-normalised Cmax (female BALB/c mice, plasma; i.p., 30 mg/kg): 210 kg·ng/mL/mg

C[C@@H](N)C1CCN(S(=O)(=O)c2cccc3cnccc23)CC1
pulse rate increase (healthy volunteers; 250 mg, 2 h, standing): 21.6 beats/min

C/C(=N\c1ccc(O)cc1)c1cc2ccccc2n1C
freeze-thaw stability (rat, plasma; three freeze-thaw cycles): stable

Cn1cc(-c2cn3nccc3c(-c3cnn([C@]4(CC#N)C[C@@H](C#N)C4)c3)n2)cn1
average concentration (healthy humans fed, plasma; 100 mg once daily, day 10, geometric mean): 81.3 ng/mL

C=CC(=O)Nc1cc(Nc2nccc(-c3cn(C)c4ccccc34)n2)c(OC)cc1N(C)CCN(C)C
recovery (storage stability; human dried blood spots; 24 h, on ice, low QC level): 73.4%

COc1ncc(-c2nc3c(n2C(C)C)[C@H](c2ccc(Cl)cc2)N(c2cc(Cl)cn(C)c2=O)C3=O)c(OC)n1
Cmax (LC-MS/MS; human, plasma; oral, 350 mg, cycle 1 day 1, high-dose arm): 2260 ng/mL

CC(C)(C(=O)N1CCOc2c(C#N)cncc2C1)C(F)F
subjects with TEAE (item: nervous system disorders; healthy humans, both sexes; oral, 20 mg single dose): 16.7%

CCn1c(=O)c(-c2cc(NC(=O)Nc3ccccc3)c(F)cc2Br)cc2cnc(N)cc21
unbound fraction at Cmax (ultracentrifugation; human, hepatic impairment mild or matched healthy, plasma; oral, 50 mg single dose): 0.462%

C=CCN1CC(=O)N2[C@@H](Cc3ccc(O)cc3F)C(=O)N(Cc3cccc(N4CC(N5CCN(CC)CC5)C4)n3)C[C@@H]2N1C(=O)NCc1ccccc1
treatment-related decreased appetite (advanced solid tumour patients; oral, 100 mg twice daily, any grade, dose-escalation): 16.7%

O=C(Nc1nc2cccc(-c3ccc(CN4CCS(=O)(=O)CC4)cc3)n2n1)C1CC1
treatment-emergent adverse events (item: cardiac disorders; human rheumatoid arthritis patients; oral, 75 mg once daily, 4 weeks, regardless of relatedness): 4.5%

C[C@H](CCC(=O)NCC(=O)O)[C@H]1CC[C@H]2[C@@H]3[C@H](O)C[C@@H]4C[C@H](O)CC[C@]4(C)[C@H]3C[C@H](O)[C@]12C
relative peak deviation (human, plasma; endogenous baseline diurnal; relative to: daily mean concentration): 190 ± 18%

Cc1cc(C)c(CNC(=O)c2cc(Cl)c3c(c2C)O[C@@](C)([C@H]2CC[C@H](N(C)C)CC2)O3)c(=O)[nH]1
unbound fraction (ultracentrifugation; solution, alpha-1 acid glycoprotein, 0.1%; 3000 ng/mL, 160 min): 0.152

COc1ccc2c(=O)n(C)c(-c3ccccc3)nc2c1
tissue concentration (Sprague-Dawley rat, male, bladder; oral, 30 mg/kg, 4 h): 24.7 ng/mL

NC1(C(=O)N[C@@H](CCO)c2ccc(Cl)cc2)CCN(c2nc[nH]c3nccc2-3)CC1
incidence of Somnolence (metastatic CRPC patients; 320 mg b.i.d., any grade, treatment-related, together with: enzalutamide 160 mg daily): 0%

COc1ccc([C@@H](O)c2cc(-c3ncnc4cc(N5CCOCC5)ccc34)c(F)cc2Cl)nn1
drug-related lymphopenia incidence (locally advanced rectal cancer patients; 100 mg, together with: capecitabine and radiotherapy): 17%

Cc1cc(-c2nnc(N)nc2-c2ccc(F)cc2)cc(Cl)n1
patients with treatment-related adverse events (item: Fatigue; human phase Ia/Ib NSCLC, post-immunotherapy; oral, 100 mg once daily): 17.6%

NC(CO)(CO)CCc1ccc(Sc2cccc(OCc3ccccc3)c2)cc1Cl
pulse rate AUEC, geometric mean (human, supine; oral, 3 mg, 0 to 312 h, alone): 19200 h×bpm

C=CC[C@@H]1/C=C(\C)C[C@H](C)C[C@H](OC)[C@H]2O[C@@](O)(C(=O)C(=O)N3CCCC[C@H]3C(=O)O[C@H](/C(C)=C/[C@@H]3CC[C@@H](O)[C@H](OC)C3)[C@H](C)[C@@H](O)CC1=O)[C@H](C)C[C@@H]2OC
plasma Na+ level (Wistar Kyoto rat, male, plasma; ip, 0.5 mg/kg/day, day 28, at sacrifice): 142 ± 1 mmol/L

COc1cc(N2CCC3(CCN(C)CC3)CC2)ccc1Nc1ncc(Cl)c(Nc2ccccc2P(C)(C)=O)n1
V2/F (population PK model; human; oral, bootstrap median): 296 L

CNC(=O)c1ccc(-c2cnc3ncc(Cc4ccc5ncccc5c4)n3n2)cc1F
AUC(0-t) (human moderate hepatic impairment NCI; oral, 200 mg single dose, mean): 7970 ng·h/mL

CCn1cc(C(=O)N2CCOCC2)c(=O)c2cc(NC3Cc4ccccc4C3)cnc21
Cmax (human female, fed, plasma; oral, 900 mg twice daily, day 7, tablet, arithmetic mean): 6920 ng/mL

CCc1cc(C(=O)NC)c2nccc(N3CCc4c(cc(Cn5ccnc5)cc4-c4cn(C)nc4C(F)(F)F)C3=O)c2c1
spleen weight (Sprague Dawley rat; oral, 100 mg/kg twice daily, 7 days): 0.526 ± 0.106 g

O=C(Cc1ccc2ccccc2c1)Nc1cc(C2CCC2)[nH]n1
measured mean concentration (mouse plasma; 0.5 ng/mL, -80 °C, freeze-thaw stability, together with: 3 freeze-thaw cycles): 0.52 ± 0.03 ng/mL

CC(C)=CC[C@@H](O)C1=CC(=O)c2c(O)ccc(O)c2C1=O
measured concentration (plasma; 25 ng/mL, 3 d, -80 °C, storage stability): 22.3 ± 1.94 ng/mL

O=C(O)CCCOc1ccc(F)cc1-c1cc(-c2ccccc2C(F)(F)F)n(-c2ccccc2)n1
chloride (Crl:CD(SD) rat, female, serum; iv, 25 µg/kg, 1 day): 107 ± 1.3 mEq/L

Cc1ccc(C)c(OCCCC(C)(C)C(=O)O)c1
geometric mean ratio (item: Half-Life; human subjects, plasma; oral, dose not given, together with: lopinavir-ritonavir; relative to: with over without lopinavir-ritonavir): 1

CNC(=O)c1ccccc1Nc1cc(Nc2ccc(N3CCOCC3)cc2OC)ncc1C(F)(F)F
solubility (oleic acid; 24 h, 25 °C): 4200 µg/mL (≈ 8.37 mM)

Cc1ccc([C@@H]2O[C@H](CO)[C@@H](O)[C@H](O)[C@H]2O)cc1Cc1ccc(-c2ccc(F)cc2)s1
urinary sodium excretion change (Japanese type 2 diabetes patients; 200 mg, day 16, 24 h urine collection; relative to: baseline): 14.7 mEq

Cn1cc(-c2ccc(-c3cncc(Cl)c3N3CCC4(CCNC4=O)CC3)cc2)cn1
fold change in expression (COLO 205; microarray, item: ATF3; concentration not given, 2 h, gene set ATF-3; relative to: untreated cells): 1.65

N#Cc1ccc(C(c2ccc(C#N)cc2)n2cncn2)cc1
unbound Cmax at steady state (human patients, plasma; oral, 12.5 mg daily): 1390 ± 120 nM

COc1ccc2[nH]c([S+]([O-])Cc3ncc(C)c(OC)c3C)nc2c1 (centres unmarked)
t1/2 (healthy Chinese volunteers, CYP2C19 rapid metabolizers; oral, 20 mg, fasted): 29.4 min

Cc1nc(-c2cnc(NC(C)C)n(C)c2=O)ccc1Oc1ccnc(-c2cnn(C)c2)c1
AUC(0-inf) (Beagle dog, male, plasma; intravenous, 1 mg/kg): 7520 ng·h/mL

CNCc1ccc(-c2[nH]c3cc(F)cc4c3c2CCNC4=O)cc1
diarrhoea incidence (human patients; oral, 480 mg twice daily, all grades): 22.2%

N#Cc1ccc2c(c1)[C@H]1CCCN(C(=O)c3ccc4[nH]cnc4c3)[C@H]1C2
minimum ACTH level (human; 160 mg, end of trial): 1.3 pmol/L

C[C@@H]1[C@H](O)[C@@H](C)/C=C/C=C/C=C/C=C/C=C/C=C/C=C/[C@H](O[C@@H]2O[C@H](C)[C@@H](O)[C@H](N)[C@@H]2O)C[C@@H]2O[C@](O)(C[C@@H](O)C[C@@H](O)[C@H](O)CC[C@@H](O)C[C@@H](O)CC(=O)O[C@H]1C)C[C@H](O)[C@H]2C(=O)O
hemolysis (human blood; 500 µg/mL, 24 h, DMSO solvent): 17.7% and 19.3% and 16.7%

CCCCCCCOc1ccc(CCC(N)(CO)CO)cc1C(F)(F)F.Cl
tlast (Sprague-Dawley rat, male, heart; oral, 1 mg/kg): 48 h

Repeated from above:
COc1cc2c3c(n(CCCN4CCOCC4)c(=O)c2cc1OC)-c1cc2c(cc1C3=O)OCO2
AUC(0-inf) (beagle dog, female, plasma; oral, 860 mg/m^2, gelatin capsule): 19.4 ng·h/mL and 17200 ng·h/mL

NCCONC(=O)[C@@H]1CC[C@@H]2CN1C(=O)N2OS(=O)(=O)O
adverse event incidence (item: leading to withdrawal; healthy Chinese men; intravenous, 1 g, treatment-related): 0%

CN(C)C(=N)N=C(N)N
subjects with adverse event (item: any adverse event; healthy men; oral, dose not given, 8 days, treatment-emergent, crossover trial): 40.9%

CNCCOC12CC3(C)CC(C)(CC(Cn4ncc(-c5ccc(N6CCc7cccc(C(=O)Nc8nc9ccccc9s8)c7C6)nc5C(=O)O)c4C)(C3)C1)C2
mean arterial pressure change (beagle dog, male, anaesthetised; intravenous bolus, 0.03 mg/kg, 10 min; relative to: baseline): -5%
